# Measurements from different studies.
# Protocols differ between the studies behind these lines.
Structure (SMILES),test,system,setting,quantity,result
Cc1ccc([C@@H]2O[C@H](CO)[C@@H](O)[C@H](O)[C@H]2O)cc1Cc1ccc(-c2ccc(F)cc2)s1,,"human, maintenance hemodialysis patients","oral, 300 mg once daily, steady state, median",volume of distribution,194 L
COc1ccc(F)cc1C(=O)NCc1ccc(-c2nn([C@@H](C)C(F)(F)F)c(N)c2C(N)=O)cc1,Simcyp parameter estimation,human,"intravenous, 22 µg",volume of single adjusted compartment (VSAC),0.17 L/kg
CN(C)CCCNC(=O)/C(=C/CCCCC(=O)NO)COc1cccc2ccccc12,,human patients,"intravenous, 312.5 mg/m2, day 1, single dose, mean",volume of distribution at steady state,44.6 L
CC(=O)O[C@H]1C(=O)[C@@]2(C)[C@H]([C@H](OC(=O)c3ccccc3)[C@]3(O)C[C@H](OC(=O)[C@H](O)[C@@H](NC(=O)c4ccccc4)c4ccccc4)C(C)=C1C3(C)C)[C@]1(OC(C)=O)CO[C@@H]1C[C@@H]2O,,"human, plasma","intravenous infusion, 80 mg/m^2, day 5, with oral co-drug daily",volume of distribution,196 L
CN(C)N=Nc1[nH]cnc1C(N)=O,,"human patients, plasma","intravenous, 1000 mg/m^2 over 1 h, cycle 2 day 1, co-administered with another drug",volume of distribution (Vz),25.5 L/m²
COc1c(OCCCN2CCOCC2)ccc2c1N=C(NC(=O)c1cnc(N)nc1)N1CCN=C21,,human,"dose not given, compartment 2",volume of distribution,508 L
Nc1ccn([C@@H]2O[C@H](CO)[C@@H](O)C2(F)F)c(=O)n1,HPLC-UV,"human, plasma","800 mg/m^2, median, before paricalcitol",volume of distribution,231 L/m²
NC(=O)N1c2ccccc2CC(O)c2ccccc21 (centres unmarked),population PK modelling,"human patients, plasma","dose not given, weight-scaled",volume of distribution,36.5 L

# A few entries again:
Structure (SMILES),test,system,setting,quantity,result
COc1ccc(F)cc1C(=O)NCc1ccc(-c2nn([C@@H](C)C(F)(F)F)c(N)c2C(N)=O)cc1,Simcyp parameter estimation,human,"intravenous, 22 µg",volume of single adjusted compartment (VSAC),0.17 L/kg
